Measured values from different studies.
Each line is one published result; not all experiments were run side by side. Numbers after ± are the reported error. Converted amounts (≈) assume the structure as drawn.
Chain of UniProt P41145 (whole entry, looked up): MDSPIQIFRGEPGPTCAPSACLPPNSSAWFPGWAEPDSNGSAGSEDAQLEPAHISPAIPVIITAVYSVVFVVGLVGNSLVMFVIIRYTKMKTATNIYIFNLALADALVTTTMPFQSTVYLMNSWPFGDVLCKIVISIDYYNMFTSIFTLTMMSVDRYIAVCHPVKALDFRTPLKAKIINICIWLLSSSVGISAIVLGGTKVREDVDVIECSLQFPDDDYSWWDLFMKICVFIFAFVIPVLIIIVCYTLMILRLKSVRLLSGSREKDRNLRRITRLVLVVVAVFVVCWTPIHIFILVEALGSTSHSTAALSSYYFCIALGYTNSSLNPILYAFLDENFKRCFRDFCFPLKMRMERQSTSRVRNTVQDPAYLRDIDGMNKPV

CC(C)C[C@H](NC(=O)[C@H](CO[C@@H]1O[C@H](CO)[C@@H](O)[C@H](O)[C@H]1O)NC(=O)[C@H](CCCCN)NC(=O)[C@H](CC(C)C)NC(=O)[C@H](C)NC(=O)[C@H](CCCCN)NC(=O)[C@H](CCC(=O)O)NC(=O)[C@H](C)NC(=O)[C@H](CC(C)C)NC(=O)[C@H](CC(N)=O)NC(=O)[C@@H]1CCCN1C(=O)[C@H](CC(C)C)NC(=O)[C@H](Cc1ccccc1)NC(=O)CNC(=O)[C@H](NC(=O)[C@@H](N)Cc1ccc(O)cc1)[C@H](C)O)C(N)=O  Ki (Kappa-type opioid receptor (OPRK1, Homo sapiens, UniProt P41145); ligand displacement, radioligand; pH 7.5, cell membranes): 8.9 nM
Cc1cc(/C=C/C#N)cc(C)c1Nc1nc(Nc2ccc(C#N)cc2)ncc1N  EC50 (HIV-1; viral replication, single-round infection; RT mutant K101P/V179I): 81.4 ± 8.1 nM
CC[C@H](C)[C@H](NC(=O)[C@H](CC(C)C)NC(=O)[C@@H](NC(=O)[C@@H](NC(=O)[C@H](CC(C)C)NC(=O)[C@H](CCCCN)NC(=O)[C@@H](N)CCCCN)[C@@H](C)CC)[C@@H](C)O)C(=O)N[C@@H](Cc1ccccc1)C(=O)N[C@@H](CCCCN)C(=O)N[C@@H](CCCCN)C(=O)N[C@H](C(=O)N[C@@H](CCCNC(=N)N)C(=O)N[C@@H](CCC(=O)O)C(=O)N[C@@H](CCCCN)C(=O)N[C@@H](CCCCN)C(=O)N[C@@H](CCCCN)C(=O)N[C@@H](CCC(=O)O)C(=O)N[C@@H](CS)C(=O)N[C@@H](CC(C)C)C(=O)N[C@H](C(=O)O)C(C)C)[C@@H](C)O  time to peak (TTX-sensitive sodium channel; resurgent sodium current, open-channel blocker, whole-cell patch clamp; mouse hippocampal CA3 neurons; 200 µM intracellular, 22 °C): 1.9 ± 0.2 ms
CC(C)N1CCn2cc(C(=O)NCc3ccc(F)cc3F)c(=O)c(O)c2C1=O  EC50 (human immunodeficiency virus 1; single-round vector infection; integrase G140S/Q148H): 27.3 ± 5.2 nM
CC[C@H](C)[C@H](NC(=O)[C@H](CCCN)NC(=O)[C@H](CC(=O)O)NC(=O)[C@H](CC(C)C)NC(=O)C(C)(CC(C)C)NC(=O)[C@@H](NC(=O)[C@H](CO)NC(=O)[C@H](Cc1ccc(O)cc1)NC(=O)[C@H](CC(=O)O)NC(=O)[C@H](CO)NC(=O)[C@@H](NC(=O)[C@H](Cc1ccccc1)NC(=O)[C@@H](NC(=O)CNC(=O)[C@H](CCC(=O)O)NC(=O)C(C)(C)NC(=O)[C@@H](N)Cc1ccc(O)cc1)[C@@H](C)O)[C@@H](C)CC)[C@@H](C)CC)C(=O)N[C@@H](Cc1c[nH]cn1)C(=O)N[C@@H](CCC(N)=O)C(=O)NC(C)(C)C(=O)N[C@@H](CC(=O)O)C(=O)N[C@@H](Cc1ccccc1)C(=O)N[C@H](C(=O)N[C@@H](CCC(=O)O)C(=O)N[C@@H](Cc1ccc(O)cc1)C(=O)N[C@@H](CCCCNC(=O)COCCOCCNC(=O)COCCOCCNC(=O)CC[C@H](NC(=O)CCCCCCCCCCCCCCCCCCC(=O)O)C(=O)O)C(=O)N[C@@H](CC(C)C)C(=O)N[C@@H](CCC(=O)O)C(=O)NCC(=O)NCC(=O)N1CCC[C@H]1C(=O)N[C@@H](CO)C(=O)N[C@@H](CO)C(=O)NCC(=O)N[C@@H](C)C(=O)N1CCC[C@H]1C(=O)N1CCC[C@H]1C(=O)N1CCC[C@H]1C(=O)N[C@@H](CO)C(N)=O)C(C)C (stereo partly shown)  Tmax (human, plasma; subcutaneous, 25 mg, single dose, healthy volunteers): 84 h
Cc1cc(/C=C/C#N)cc(C)c1-n1cnc2cnc(Nc3ccc(C#N)cc3)nc21  EC50 (HIV-1; viral replication, single-round infection; RT mutant M230L): 4.2 ± 0.5 nM
CCCCCCCCCCCCCCCCCC(=O)N[C@@H](CCC(=O)NCCCC[C@H](NC(=O)[C@H](CCC(N)=O)NC(=O)[C@H](CCCCN)NC(=O)[C@H](CO)NC(=O)[C@H](CC(C)C)NC(=O)[C@H](CC(=O)O)NC(=O)[C@H](CO)NC(=O)[C@@H](NC(=O)[C@H](Cc1ccccc1)NC(=O)[C@@H](NC(=O)CNC(=O)[C@H](CCC(N)=O)NC(=O)[C@@H](CO)NC(=O)[C@@H](N)Cc1c[nH]cn1)[C@@H](C)O)[C@@H](C)O)C(=O)N[C@@H](CC(=O)O)C(=O)N[C@@H](CCC(=O)O)C(=O)N[C@@H](CCC(N)=O)C(=O)N[C@@H](CC(C)C)C(=O)N[C@@H](C)C(=O)N[C@@H](CCCCN)C(=O)N[C@@H](CC(=O)O)C(=O)N[C@@H](Cc1ccccc1)C(=O)N[C@H](C(=O)N[C@@H](CCC(=O)O)C(=O)N[C@@H](Cc1c[nH]c2ccccc12)C(=O)N[C@@H](CC(C)C)C(=O)N[C@@H](CCCCN)C(=O)N[C@@H](C)C(=O)NCC(=O)NCC(=O)N1CCC[C@H]1C(=O)N[C@@H](CO)C(=O)N[C@@H](CO)C(=O)NCC(=O)N[C@@H](C)C(=O)N1CCC[C@H]1C(=O)N1CCC[C@H]1C(=O)N1CCC[C@H]1C(=O)N[C@@H](CO)C(N)=O)[C@@H](C)CC)C(=O)O  HbA1c (cynomolgus monkey, obese diabetic; dose not given, day 43, chronic multiple dosing): 6.1 ± 0.4%
CC[C@H](C)[C@H](NC(=O)[C@H](CO)NC(=O)[C@H](Cc1ccc(O)cc1)NC(=O)[C@H](CC(=O)O)NC(=O)[C@H](CO)NC(=O)[C@@H](NC(=O)[C@H](Cc1ccccc1)NC(=O)[C@@H](NC(=O)CNC(=O)[C@H](CCC(=O)O)NC(=O)[C@@H](C)NC(=O)[C@@H](N)Cc1ccc(O)cc1)[C@@H](C)O)[C@@H](C)CC)C(=O)N[C@@H](C)C(=O)N[C@@H](CCSC)C(=O)N[C@@H](CC(=O)O)C(=O)N[C@@H](CCCCN)C(=O)N[C@H](C(=O)N[C@@H](Cc1c[nH]cn1)C(=O)N[C@@H](CCC(N)=O)C(=O)N[C@@H](CCC(N)=O)C(=O)N[C@@H](CC(=O)O)C(=O)N[C@@H](Cc1ccccc1)C(=O)N[C@H](C(=O)N[C@@H](CC(N)=O)C(=O)N[C@@H](Cc1c[nH]c2ccccc12)C(=O)N[C@@H](CC(C)C)C(=O)N[C@@H](CC(C)C)C(=O)N[C@@H](C)C(=O)N[C@@H](CCC(N)=O)C(=O)N[C@@H](CCCCN)C(=O)N1CCC[C@H]1C(=O)N[C@@H](CO)C(=O)N[C@@H](CO)C(=O)NCC(=O)N[C@@H](C)C(=O)N1CCC[C@H]1C(=O)N1CCC[C@H]1C(=O)N1CCC[C@H]1C(=O)N[C@@H](CO)C(N)=O)C(C)C)[C@@H](C)CC  stability time (human plasma; 37 °C): ≥ 5 h
CC[C@H](C)[C@H](NC(=O)[C@H](CCCCN)NC(=O)[C@H](Cc1c[nH]c2ccccc12)NC(=O)[C@H](CC(C)C)NC(=O)[C@H](CC(C)C)NC(=O)[C@H](CC(=O)O)NC(=O)[C@@H](NC(=O)[C@H](CCCNC(=N)N)NC(=O)[C@H](CCC(=O)O)NC(=O)[C@H](CCCNC(=N)N)NC(=O)[C@H](CC(=O)O)NC(=O)[C@H](CC(C)C)NC(C)=O)[C@@H](C)CC)C(=O)N[C@@H](C)C(=O)N[C@@H](CCCNC(=N)N)C(=O)N[C@@H](C)C(=O)NCC(=O)N[C@@H](C)C(=O)N[C@@H](CCCNC(=N)N)C(=O)N[C@@H](CO)C(=O)N[C@@H](C)C(=O)N[C@H](C(=O)NCC(N)=O)C(C)C  membrane partition coefficient (amide-selective NMR; POPC/POPG/chol 7:2:1 SUV; 15 µM, pH 7.5, 25 °C): 52000 ± 1000
CN1CCn2cc(C(=O)NCc3ccc(F)cc3F)c(=O)c(O)c2C1=O  EC50 (human immunodeficiency virus 1; single-round vector infection; integrase S230N): 7.4 ± 0.5 nM
CC[C@H](C)[C@H](N)C(=O)N[C@@H](Cc1c[nH]c2ccccc12)C(=O)N[C@@H](CC(C)C)C(=O)N[C@H](C(=O)N[C@@H](C)C(=O)N[C@@H](CC(C)C)C(=O)N[C@@H](CCCCN)C(=O)N[C@@H](Cc1ccccc1)C(=O)N[C@@H](CC(C)C)C(=O)NCC(=O)N[C@@H](CCCCN)C(=O)N[C@@H](Cc1c[nH]cn1)C(=O)N[C@@H](C)C(=O)N[C@@H](C)C(=O)N[C@@H](CCCCN)C(=O)N[C@@H](Cc1c[nH]cn1)C(=O)N[C@@H](CCC(=O)O)C(=O)N[C@@H](C)C(=O)N[C@@H](CCCCN)C(=O)N[C@@H](CCC(N)=O)C(=O)N[C@@H](CCC(N)=O)C(=O)N[C@@H](CC(C)C)C(=O)N[C@@H](CO)C(=O)N[C@@H](CCCCN)C(=O)N[C@@H](CC(C)C)C(=O)N[C@@H](CS)C(N)=O)[C@@H](C)O  EC50 (human red blood cells; pH 7.4; baseline: Triton X-100): > 100000 nM
CCCCCCCCCCCCCCCC(=O)N[C@@H](CCC(=O)NCCOCCOCCC(=O)NCCOCCOCCC(=O)NCCCC[C@H](NC(=O)[C@H](CC(=O)O)NC(=O)[C@H](CC(C)C)NC(=O)[C@H](Cc1ccc(O)cc1)NC(=O)[C@H](CCCCN)NC(=O)[C@H](CO)NC(=O)[C@H](Cc1ccc(O)cc1)NC(=O)[C@H](CC(=O)O)NC(=O)[C@H](CO)NC(=O)[C@@H](NC(=O)[C@H](Cc1ccccc1)NC(=O)[C@@H](NC(=O)CNC(=O)[C@H](CCC(N)=O)NC(=O)[C@@H](CO)NC(=O)[C@@H](N)Cc1c[nH]cn1)[C@@H](C)O)[C@@H](C)O)C(=O)N[C@@H](CCCNC(=N)N)C(=O)N[C@@H](CCCNC(=N)N)C(=O)N[C@@H](C)C(=O)N[C@@H](CCC(N)=O)C(=O)N[C@@H](CC(=O)O)C(=O)N[C@@H](Cc1ccccc1)C(=O)N[C@H](C(=O)N[C@@H](CCC(N)=O)C(=O)N[C@@H](Cc1c[nH]c2ccccc12)C(=O)N[C@@H](CC(C)C)C(=O)N[C@@H](CC(C)C)C(=O)N[C@@H](CC(N)=O)C(=O)N[C@H](C(=O)NCC(=O)NCC(=O)N1CCC[C@H]1C(=O)N[C@@H](CO)C(=O)N[C@@H](CO)C(=O)NCC(=O)N[C@@H](C)C(=O)N1CCC[C@H]1C(=O)N1CCC[C@H]1C(=O)N1CCC[C@H]1C(=O)N[C@@H](CO)C(N)=O)[C@@H](C)O)C(C)C)C(=O)O  total bilirubin (rhesus monkey, female; subcutaneous, 20 µg/kg once daily, 28 days): 3.5 ± 1.2 µmol/L
CC[C@H](C)[C@H](NC(=O)[C@H](CCCCN)NC(=O)[C@H](CCCCN)NC(=O)[C@H](CC(C)C)NC(=O)[C@H](Cc1c[nH]c2ccccc12)NC(=O)CN)C(=O)NCC(=O)N[C@@H](CCCCN)C(=O)N[C@@H](CCCCN)C(=O)N[C@H](C(=O)N[C@@H](CCC(=O)O)C(=O)N[C@@H](CCCNC(=N)N)C(=O)N[C@H](C(=O)NCC(=O)N[C@@H](CCC(N)=O)C(=O)N[C@@H](Cc1c[nH]cn1)C(=O)N[C@H](C(=O)N[C@@H](CCCNC(=N)N)C(=O)N[C@@H](CC(=O)O)C(=O)N[C@@H](C)C(=O)N[C@H](C(=O)N[C@H](C(=O)N[C@@H](CCC(N)=O)C(=O)N[C@H](C(=O)N[C@H](C(=O)NCC(=O)N[C@H](C(=O)N[C@@H](C)C(=O)N[C@@H](CCC(N)=O)C(=O)N[C@@H](CCC(N)=O)C(=O)N[C@@H](C)C(=O)N[C@@H](C)C(=O)N[C@@H](CC(N)=O)C(=O)N[C@H](C(=O)N[C@@H](C)C(=O)N[C@@H](C)C(=O)N[C@H](C(=O)N[C@@H](CC(C)C)C(=O)N[C@@H](CCCCN)C(N)=O)[C@@H](C)O)C(C)C)C(C)C)[C@@H](C)CC)[C@@H](C)O)[C@@H](C)CC)[C@@H](C)O)[C@@H](C)O)C(C)C)[C@@H](C)CC  MIC (Pseudomonas aeruginosa; ATCC 27853, CAMHB with 10% mouse serum): 128 µg/mL (≈ 30.5 µM)

Excerpt of the above:
CC(C)C[C@H](NC(=O)[C@H](CO[C@@H]1O[C@H](CO)[C@@H](O)[C@H](O)[C@H]1O)NC(=O)[C@H](CCCCN)NC(=O)[C@H](CC(C)C)NC(=O)[C@H](C)NC(=O)[C@H](CCCCN)NC(=O)[C@H](CCC(=O)O)NC(=O)[C@H](C)NC(=O)[C@H](CC(C)C)NC(=O)[C@H](CC(N)=O)NC(=O)[C@@H]1CCCN1C(=O)[C@H](CC(C)C)NC(=O)[C@H](Cc1ccccc1)NC(=O)CNC(=O)[C@H](NC(=O)[C@@H](N)Cc1ccc(O)cc1)[C@H](C)O)C(N)=O  Ki (Kappa-type opioid receptor (OPRK1, Homo sapiens, UniProt P41145); ligand displacement, radioligand; pH 7.5, cell membranes): 8.9 nM
Cc1cc(/C=C/C#N)cc(C)c1Nc1nc(Nc2ccc(C#N)cc2)ncc1N  EC50 (HIV-1; viral replication, single-round infection; RT mutant K101P/V179I): 81.4 ± 8.1 nM
